Results from different studies.
Compare with care: the assays were run in different laboratories.
Target: histidine kinase ComD (Streptococcus pneumoniae serotype 4, UniProt A0A0H2US84)
Organism: Streptococcus pneumoniae
One construct used (A0A0H2US84 1-441): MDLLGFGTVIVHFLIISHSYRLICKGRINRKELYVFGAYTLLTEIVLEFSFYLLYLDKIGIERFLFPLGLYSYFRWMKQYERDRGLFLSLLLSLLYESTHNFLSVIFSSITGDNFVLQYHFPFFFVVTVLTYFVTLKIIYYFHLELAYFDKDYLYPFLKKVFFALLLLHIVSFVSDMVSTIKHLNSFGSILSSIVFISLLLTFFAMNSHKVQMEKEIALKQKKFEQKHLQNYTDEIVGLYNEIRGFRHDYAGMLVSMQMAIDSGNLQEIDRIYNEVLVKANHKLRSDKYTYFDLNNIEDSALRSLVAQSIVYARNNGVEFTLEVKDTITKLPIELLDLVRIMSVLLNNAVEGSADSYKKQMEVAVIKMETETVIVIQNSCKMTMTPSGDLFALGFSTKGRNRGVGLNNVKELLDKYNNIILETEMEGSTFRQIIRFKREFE

`CC[C@H](C)[C@H](NC(=O)[C@H](Cc1ccccc1)NC(=O)[C@H](CCCN)NC(=O)[C@H](CCCNC(=N)N)NC(=O)[C@H](Cc1ccccc1)NC(=O)[C@H](Cc1ccccc1)NC(=O)[C@H](CCN)NC(=O)[C@H](CO)NC(=O)[C@H](CC(C)C)NC(=O)[C@H](CCCNC(=N)N)NC(=O)[C@H](CCSC)NC(=O)[C@H](C)N)C(=O)N[C@@H](CC(C)C)C(=O)N[C@@H](CCC(N)=O)C(=O)N[C@@H](CCCNC(=N)N)C(=O)N[C@@H](CCCCN)C(=O)N[C@@H](CCCCN)C(=O)O` gave an IC50 of over 1000 nM (Streptococcus pneumoniae cells).
`CC[C@H](C)[C@H](NC(=O)[C@H](Cc1ccccc1)NC(=O)[C@H](C)NC(=O)[C@H](C)NC(=O)[C@H](Cc1ccccc1)NC(=O)[C@H](Cc1ccccc1)NC(=O)[C@H](C)NC(=O)[C@H](C)NC(=O)[C@H](CC(C)C)NC(=O)[C@H](CCCNC(=N)N)NC(=O)[C@H](CCSC)NC(=O)[C@@H](N)CCC(=O)O)C(=O)N[C@@H](CC(C)C)C(=O)N[C@@H](C)C(=O)N[C@@H](CCCNC(=N)N)C(=O)N[C@@H](CCCCN)C(=O)N[C@@H](CCCCN)C(=O)O` gave an EC50 of over 1 µM.
`CC[C@H](C)[C@H](NC(=O)[C@H](Cc1c[nH]cn1)NC(=O)[C@@H](NC(=O)[C@H](CCC(N)=O)NC(=O)[C@H](CCCNC(=N)N)NC(=O)[C@@H](NC(=O)[C@@H](N)CCC(=O)O)[C@@H](C)CC)[C@@H](C)O)C(=O)N[C@H](C(=O)N[C@@H](Cc1ccccc1)C(=O)N[C@@H](Cc1ccccc1)C(=O)N[C@@H](Cc1ccccc1)C(=O)N[C@@H](Cc1ccccc1)C(=O)N[C@@H](Cc1ccccc1)C(=O)N[C@@H](CCCCN)C(=O)N[C@@H](CCCNC(=N)N)C(=O)N[C@@H](CCCNC(=N)N)C(=O)O)[C@@H](C)CC` has an EC50 of over 10 µM (reporter gene, agonist; TIGR4 comX::lacZ; 30 min, pH 7.3, 37 °C).
The IC50 of `CCC[C@H](NC(=O)[C@H](CCCNC(=N)N)NC(=O)[C@H](CCSC)NC(=O)[C@H](C)N)C(=O)N[C@@H](CO)C(=O)N[C@@H](CCCNC(=N)N)C(=O)N[C@H](C(=O)N[C@H](C(=O)N[C@@H](CCCNC(=N)N)C(=O)N[C@H](CC(=O)O)C(=O)N[C@@H](Cc1ccccc1)C(=O)N[C@@H](CC(C)C)C(=O)N[C@@H](Cc1ccccc1)C(=O)N[C@@H](CCC(N)=O)C(=O)N[C@@H](CCCNC(=N)N)C(=O)N[C@@H](CCCCN)C(=O)N[C@@H](CCCCN)C(=O)O)[C@@H](C)CC)[C@@H](C)CC` is reported as over 1000 nM.
For `CC[C@H](C)[C@H](NC(=O)[C@H](Cc1ccccc1)NC(=O)[C@@H]1CNC(=O)NC[C@H](NC(=O)[C@H](CO)NC(=O)[C@H](CC(C)C)NC(=O)[C@H](CCCNC(=N)N)NC(=O)[C@H](CCSC)NC(=O)[C@H](C)N)C(=O)N[C@@H](Cc2ccccc2)C(=O)N[C@@H](Cc2ccccc2)C(=O)N[C@@H](CCCNC(=N)N)C(=O)N1)C(=O)N[C@@H](CC(C)C)C(=O)N[C@@H](CCC(N)=O)C(=O)N[C@@H](CCCNC(=N)N)C(=O)N[C@@H](CCCCN)C(=O)N[C@@H](CCCCN)C(=O)O`, the EC50 was over 1 µM.
`CC[C@H](C)[C@H](NC(=O)[C@H](C)N)C(=O)N[C@@H](CCCNC(=N)N)C(=O)N[C@@H](CCC(N)=O)C(=O)N[C@H](C(=O)N[C@@H](Cc1c[nH]cn1)C(=O)N[C@@H](CC(N)=O)C(=O)N[C@H](C(=O)N[C@@H](Cc1ccccc1)C(=O)N[C@@H](Cc1ccccc1)C(=O)N[C@@H](Cc1ccccc1)C(=O)N[C@@H](CC(C)C)C(=O)N[C@@H](Cc1ccccc1)C(=O)N[C@@H](CCCCN)C(=O)N[C@@H](CCCNC(=N)N)C(=O)N[C@@H](CCCNC(=N)N)C(=O)O)[C@@H](C)CC)[C@@H](C)O` gave an IC50 of over 10000 nM (reporter gene, antagonist; TIGR4 comX::lacZ; 30 min, 37 °C, with: CSP2 250 nM).
`CC[C@H](C)[C@H](NC(=O)[C@H](Cc1ccccc1)NC(=O)[C@H](CCN)NC(=O)[C@H](CCCNC(=N)N)NC(=O)[C@H](Cc1ccccc1)NC(=O)[C@H](Cc1ccccc1)NC(=O)[C@H](CCCN)NC(=O)[C@H](CO)NC(=O)[C@H](CC(C)C)NC(=O)[C@H](CCCNC(=N)N)NC(=O)[C@H](CCSC)NC(=O)[C@H](C)N)C(=O)N[C@@H](CC(C)C)C(=O)N[C@@H](CCC(N)=O)C(=O)N[C@@H](CCCNC(=N)N)C(=O)N[C@@H](CCCCN)C(=O)N[C@@H](CCCCN)C(=O)O` has an IC50 of over 1000 nM (Streptococcus pneumoniae cells).
`CC[C@H](C)[C@H](NC(=O)[C@H](CC(N)=O)NC(=O)[C@H](Cc1c[nH]cn1)NC(=O)[C@@H](NC(=O)[C@@H](NC(=O)[C@H](CCCNC(=N)N)NC(=O)[C@@H](NC(=O)[C@@H](N)CCC(=O)O)[C@@H](C)CC)[C@@H](C)CC)[C@@H](C)O)C(=O)N[C@@H](Cc1ccccc1)C(=O)N[C@@H](Cc1ccccc1)C(=O)N[C@@H](CC(N)=O)C(=O)N[C@@H](Cc1ccccc1)C(=O)N[C@@H](Cc1ccccc1)C(=O)N[C@@H](CCCCN)C(=O)N[C@@H](CCCNC(=N)N)C(=O)N[C@@H](CCCNC(=N)N)C(=O)O` gave an EC50 of over 10 µM (reporter gene, agonist; TIGR4 comX::lacZ; 30 min, pH 7.3, 37 °C).
The IC50 of `CC[C@H](C)[C@H](NC(=O)[C@H](CCCNC(=N)N)NC(=O)[C@H](CCSC)NC(=O)[C@H](C)N)C(=O)N[C@@H](CO)C(=O)N[C@@H](CCCNC(=N)N)C(=O)N[C@H](C(=O)N[C@H](C(=O)N[C@@H](CCCNC(=N)N)C(=O)N[C@H](CC(=O)O)C(=O)N[C@@H](Cc1ccccc1)C(=O)N[C@@H](CC(C)C)C(=O)N[C@@H](Cc1ccccc1)C(=O)N[C@@H](CCC(N)=O)C(=O)N[C@@H](CCCNC(=N)N)C(=O)N[C@@H](CCCCN)C(=O)N[C@@H](CCCCN)C(=O)O)[C@@H](C)CC)[C@@H](C)CC` is reported as over 1000 nM.

Some of these lines once more:
The IC50 of `CC[C@H](C)[C@H](NC(=O)[C@H](CCCNC(=N)N)NC(=O)[C@H](CCSC)NC(=O)[C@H](C)N)C(=O)N[C@@H](CO)C(=O)N[C@@H](CCCNC(=N)N)C(=O)N[C@H](C(=O)N[C@H](C(=O)N[C@@H](CCCNC(=N)N)C(=O)N[C@H](CC(=O)O)C(=O)N[C@@H](Cc1ccccc1)C(=O)N[C@@H](CC(C)C)C(=O)N[C@@H](Cc1ccccc1)C(=O)N[C@@H](CCC(N)=O)C(=O)N[C@@H](CCCNC(=N)N)C(=O)N[C@@H](CCCCN)C(=O)N[C@@H](CCCCN)C(=O)O)[C@@H](C)CC)[C@@H](C)CC` is reported as over 1000 nM.
